Assay results pooled from the literature.
Protocols differ between the studies behind these lines. ± gives the spread as reported.
TDP1: Tyrosyl-DNA phosphodiesterase 1 (TDP1, Homo sapiens, UniProt Q9NUW8)
UniProt Q9NUW8, sequence (whole entry, looked up): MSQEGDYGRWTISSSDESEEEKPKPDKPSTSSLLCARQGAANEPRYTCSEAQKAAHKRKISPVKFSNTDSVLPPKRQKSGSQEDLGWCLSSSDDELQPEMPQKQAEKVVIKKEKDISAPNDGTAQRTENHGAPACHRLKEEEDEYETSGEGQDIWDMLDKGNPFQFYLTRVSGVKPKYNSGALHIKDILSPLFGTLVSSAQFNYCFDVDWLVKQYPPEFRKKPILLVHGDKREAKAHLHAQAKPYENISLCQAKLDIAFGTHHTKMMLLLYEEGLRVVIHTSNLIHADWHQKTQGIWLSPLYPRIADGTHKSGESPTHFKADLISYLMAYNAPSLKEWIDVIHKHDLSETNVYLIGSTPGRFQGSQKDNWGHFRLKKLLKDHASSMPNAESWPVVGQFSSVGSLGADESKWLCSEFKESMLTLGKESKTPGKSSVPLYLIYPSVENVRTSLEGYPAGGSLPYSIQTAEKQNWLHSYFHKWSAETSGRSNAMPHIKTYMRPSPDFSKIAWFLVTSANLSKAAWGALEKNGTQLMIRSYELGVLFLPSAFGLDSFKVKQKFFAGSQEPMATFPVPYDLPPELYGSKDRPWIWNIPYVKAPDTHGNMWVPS

CCn1nc(Cl)c2c1-c1cnc(N)c(c1)O[C@H](C)c1cc(F)ccc1-c1nn(C)cc1C2
IC50 (Ba/F3 ETV6-TRKB; cell viability): 0.128 µM

NC(=O)c1ccc(-c2ccccc2Cl)c2c3c([nH]c12)CC[C@H](N)C3
IC50 (RKO; cell growth or viability): 0.00952 µM

O=c1cc(-c2ccccc2)oc2cc(O)cc([O][Ga+][O]c3cc(O)cc4oc(-c5ccccc5)cc(=O)c34)c12
IC50 (LO2; cell viability, MTT): > 200 µM

CCN(C(=O)c1cc(F)ccc1Oc1nncnc1N1CCC2(C1)CN([C@H](CCCN(C)CCOC)C(C)C)C2)C(C)C
IC50 (MOLM-14 (KMT2A-AF9, FLT3-ITD); mRNA level, QuantiGene multiplex, item: FLT3): 0.301 ± 0.081 µM

NCCOc1cc(NC(=O)c2cc(OCc3cn([C@H]4O[C@@H](CO)[C@H](O)[C@@H](O)[C@@H]4O)nn3)cc(C(=O)Nc3cc(OCCN)c4ccccc4n3)n2)nc2ccccc12
IC50 (HT-1080; cell growth or viability, ATP luminescence; 72 h): > 40 µM

CNS(=O)(=O)Nc1nccc(Cc2c(C)c3ccc(Oc4ncccc4F)cc3oc2=O)c1F
IC50 (LS-411N; cell viability; 7 days): 0.124 µM

CN(C)C(=O)c1cncc(N2Cc3cn(CC4CCCCC4)nc3C2)n1
IC50 (HEK293 expressing GluA1 and GluA2; glutamate excitotoxic cell death, CellTox Green; together with: glutamate): 0.167 µM

COC(CC1C(C)=CCC2C1(C)CCC1C(C)(C)C(O)C(O)CC12C)C(N)C(=O)O (stereo not drawn)
IC50 (THP-29; cell viability, CCK-8; 72 h): > 10 µM

Cn1ncc(-c2ccc3c(=O)[nH]nc(CN)c3c2)c1-c1c(F)c(Cl)cc(OC2CC2)c1C#N
IC50 (HCC95; cell viability, inhibitor, CellTiter-Glo; 120 h, baseline-subtracted): 2.21 µM

CN(C)C(=O)c1ccnc(N2Cc3cn(Cc4ccc(F)c(Cl)c4)nc3C2)n1
IC50 (HEK293 expressing GluA1 and GluA2; glutamate excitotoxic cell death, CellTox Green; together with: glutamate): 0.013 µM

CC(C)c1ccc(N(C)c2ccc3c(c2)OCC[C@H]3CNc2cnccc2C(=O)O)cc1
IC50 (NCI-H2023; cell growth or viability, ATP luminescence; 7 days): 0.00303 µM

O=C1C=CC2(Oc3cccc4cccc(c34)O2)C2=C1C(O)CCC2O (stereo not drawn)
IC50 (OVCAR-3; cell growth or viability, resazurin; 72 h): 2 µM

Cc1ccc([N+](=O)[O-])cc1S(=O)(=O)N(C)/N=C/c1cnc2ccc(Br)cn12
IC50 (HOP-62; cell growth or viability): 0.008 µM

COc1cc(S(=O)(=O)Oc2ccc3[nH]c(C)cc3c2)cc(OC)c1OC
IC50 (SUIT-2; cell growth or viability, fluorescence; 72 h): 0.0154 µM

CN(C)C(=O)c1cccc(N2Cc3cn(Cc4cccc(C(F)(F)F)c4)nc3C2)c1
IC50 (HEK293 expressing GluA1 and GluA2; glutamate excitotoxic cell death, CellTox Green; together with: glutamate): 0.065 µM

CCCN1C(=O)/C(=C/C(=O)OCC)S/C1=N\N=C\c1cccc2cc3ccccc3nc12
IC50 (SK-BR-3; cell growth or viability, MTT; 48 h): > 50 µM

Cc1sc2c(c1C)C(c1ccc(Cl)cc1)=N[C@@H](CC(=O)NCCN(C)CCCCNC(=O)CCCCOc1cccc3c1C(=O)N([C@H]1CCC(=O)NC1=O)C3=O)c1nnc(C)n1-2
IC50 (AGS; cell growth or viability, CCK-8; 72 h): 4.71 µM

CN1C(=O)CS/C1=N\N=C\c1cccc2cc3ccccc3nc12
IC50 (SK-BR-3; cell growth or viability, MTT; 48 h): > 50 µM

O=C(NC1CCCCC1)c1cncc(N2Cc3cn(Cc4ccc(F)cc4)nc3C2)n1
IC50 (HEK293 expressing GluA1 and GluA2; glutamate excitotoxic cell death, CellTox Green; together with: glutamate): 0.046 µM

C/C(=N\N=C1/NC(=O)CS1)c1c(O)c2ccccc2oc1=O
IC50 (human Skin fibroblast; cell growth or viability, MTT; 48 h): > 100 µM

O=C(NCC(F)(F)F)c1cccc(N2Cc3cnn(Cc4ccc(F)cc4)c3C2)c1
IC50 (HEK293 expressing GluA1 and GluA2; glutamate excitotoxic cell death, CellTox Green; together with: glutamate): 0.013 µM

O=C(O)c1ccc(Nc2c(-c3ccccc3)nc3ccc(CON=Cc4ccc(OCc5ccccc5)cc4)cn23)cc1 (mixture of isomers)
inhibition (TDP1; enzyme activity, inhibitor; 100 µM, unpurified compound): 40.3%

C=CC(=O)N1CCCC(n2c(=O)c3ncccc3n(Cc3ccc(Oc4ccccc4)cc3)c2=O)C1 (stereo not drawn)
IC50 (Rec1; cell growth or viability, MTT; 72 h): 0.1 µM

CC(C)CN1C(=O)CS/C1=N\N=C\c1cccc2cc3ccccc3nc12
IC50 (SK-BR-3; cell growth or viability, MTT; 48 h): > 50 µM

COc1cc(-c2cn(C)c(=O)c3cnccc23)cc(OC)c1CN(C)C
IC50 (MV4-11; cell growth or viability, ATP luminescence): 10.6 µM

CN(C(=O)c1cncc(N2Cc3cn(Cc4ccc(F)cc4)nc3C2)n1)C1CCCC1
IC50 (HEK293 expressing GluA1 and GluA2; glutamate excitotoxic cell death, CellTox Green; together with: glutamate): 0.042 µM

O=C(NCc1cc(F)cc(F)c1)[C@@]1(O)CCN(c2ccc3[nH]ccc3c2)C1=O
IC50 (IMR-5; cell growth or viability): 0.12 µM

O=C(NCCOCCNC(=O)c1cc2ccccc2c2ccccc12)c1cc(C(=O)N2CCNCCNCCNCC2)c(O)c(C(=O)N2CCNCCNCCNCC2)c1
IC50 (2C6 normal pancreas; cell viability, MTT; 24 h): > 1000 µM

CCOc1cncc(-c2ccc(NC(=O)C3(c4ccnc(NS(=O)(=O)C5CC5)n4)CCOCC3)nc2)n1
IC50 (UACC-257; cell growth or viability, ATP luminescence; 72 h): 0.072 µM

COc1cc(-c2cc(C(C)=O)n3ccccc23)c(OC)cc1CN1CCOCC1
IC50 (MV4-11; cell growth or viability, ATP luminescence): 5.21 µM

Cc1ccc(C(C)C)cc1.Cc1ccc(C(C)C)cc1.Cc1ccc(C(C)C)cc1.Cc1ccc(C(C)C)cc1.O=S(=O)(O)C(F)(F)F.O=S(=O)(O)C(F)(F)F.O=S(=O)(O)C(F)(F)F.O=S(=O)(O)C(F)(F)F.c1ccc2c3c4ccccc4c(c2c1)-c1cn(nn1)-c1cc[n+](cc1)[Ru-]1[O]c2cc4c(cc2=[O+]1)[O][Ru-]([O+]=4)[n+]1ccc(cc1)-n1cc(nn1)-c1c2ccccc2c(c2ccccc12)-c1cn(nn1)-c1cc[n+](cc1)[Ru-]1[O]c2cc4c(cc2=[O+]1)[O][Ru-]([O+]=4)[n+]1ccc(cc1)-n1cc-3nn1
IC50 (AGS; cell growth or viability, MTT; 24 h): 16.5 µM

CCN1C(=O)CS/C1=N/N=C(\C)c1c(O)c2ccccc2oc1=O
IC50 (human Skin fibroblast; cell growth or viability, MTT; 48 h): > 100 µM

CCn1cc(-c2cccc(C(F)(F)F)c2)c2sc(C(=N)NC3CCS(=O)(=O)CC3)cc2c1=O
IC50 (MV4-11; cell growth or viability, ATP luminescence): 1.4 µM

O=C(NC1CCCCC1)c1cccc(N2Cc3cn(Cc4ccc(F)cc4)nc3C2)c1
IC50 (HEK293 expressing GluA1 and GluA2; glutamate excitotoxic cell death, CellTox Green; together with: glutamate): 0.057 µM

CN1CCC(N[C@@H]2CCc3[nH]c4c(C(N)=O)ccc(-c5ccccc5Cl)c4c3C2)CC1
IC50 (SGC-7901; cell growth or viability): 0.0133 µM

Cc1ccc(C(C)C)cc1.Cc1ccc(C(C)C)cc1.Cc1ccc(C(C)C)cc1.Cc1ccc(C(C)C)cc1.O=S(=O)(O)C(F)(F)F.O=S(=O)(O)C(F)(F)F.O=S(=O)(O)C(F)(F)F.O=S(=O)(O)C(F)(F)F.c1ccc2c3c4ccccc4c(c2c1)-c1cn(nn1)-c1cc[n+](cc1)[Ru-]1[O]c2c4ccccc4c4c5c(c6ccccc6c(c25)=[O+]1)=[O+][Ru-]([O]4)[n+]1ccc(cc1)-n1cc(nn1)-c1c2ccccc2c(c2ccccc12)-c1cn(nn1)-c1cc[n+](cc1)[Ru-]1[O]c2c4ccccc4c4c5c(c6ccccc6c(c25)=[O+]1)=[O+][Ru-]([O]4)[n+]1ccc(cc1)-n1cc-3nn1
IC50 (AGS; cell growth, MTT; 24 h, 20 µM preincubated in medium 0 h at 37 °C): 2.4 ± 0.33 µM

O=C(O)c1cncc(N2Cc3cnn(Cc4ccc(F)cc4)c3C2)n1
IC50 (HEK293 expressing GluA1 and GluA2; glutamate excitotoxic cell death, CellTox Green; together with: glutamate): > 5 µM

CC(C)(C=NOCc1ccc2nc(-c3ccccc3)c(Nc3ccc(C(=O)O)cc3)n2c1)Sc1ccccc1 (mixture of isomers)
inhibition (TDP1; enzyme activity, inhibitor; 100 µM, unpurified compound): 11.2%

Cc1c(C)c2cccnc2c2ncccc12.Cc1ccc2c(Cl)cc(Cl)c([O-])c2n1.Cc1ccc2c(Cl)cc(Cl)c([O-])c2n1.[Co+2]
IC50 (HepG2; cell growth or viability, MTT; 48 h): 4.12 µM
